Measured values gathered from unrelated publications.
Several values in a cell are separate wells, animals, samples, runs or records.
Target: Beta-1 adrenergic receptor (ADRB1, Homo sapiens, UniProt P08588)
Sequence of UniProt P08588 (whole entry, looked up): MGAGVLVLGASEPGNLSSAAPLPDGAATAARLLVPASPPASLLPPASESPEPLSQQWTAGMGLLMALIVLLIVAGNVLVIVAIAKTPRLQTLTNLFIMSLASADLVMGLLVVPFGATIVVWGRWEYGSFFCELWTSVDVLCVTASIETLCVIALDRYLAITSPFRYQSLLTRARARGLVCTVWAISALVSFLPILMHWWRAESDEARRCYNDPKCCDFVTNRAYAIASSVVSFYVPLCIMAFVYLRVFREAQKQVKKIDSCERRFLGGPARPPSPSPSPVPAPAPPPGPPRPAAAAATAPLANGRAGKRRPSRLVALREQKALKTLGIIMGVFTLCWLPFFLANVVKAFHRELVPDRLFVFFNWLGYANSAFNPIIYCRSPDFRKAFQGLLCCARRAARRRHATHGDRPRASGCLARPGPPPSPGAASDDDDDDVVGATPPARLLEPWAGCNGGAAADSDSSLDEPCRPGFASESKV

| Compound | test | system | setting | scale | quantity | result |
| --- | --- | --- | --- | --- | --- | --- |
| CN(C(=O)n1cnc(-c2ccc[n+]([O-])c2)c1)C1CCCCC1 | – | – | 10 µM | – | inhibition | 10.7% |
| N[C@@H](Cc1ccccc1)C(=O)O | – | HEK293 expressing β1AR | 100 µM | – | cAMP level | 22.7 pmol/mg protein and 22.2 pmol/mg protein and 23.9 pmol/mg protein and 18.2 pmol/mg protein |
| OCCCN1CC[C@@H]2C[C@H]1c1cc(-c3ccc(C(F)(F)F)cc3)ccc12 | radioligand binding, PDSP competition binding | – | 10 µM | – | inhibition | < 50% |
| CC(C)NCC(O)COc1ccc(CC(N)=O)cc1 (stereo not drawn) | radioligand binding, agonist | – | reference compound | – | Hill coefficient | 0.9 |
| CN1CCC(CNc2ccc3ncc(-c4cccc(OC(F)(F)F)c4)n3n2)CC1 | cAMP, antagonist, cell-based GPCR | – | 10 µM | relative to: control | response | > 50% |
| CCN1/C(=C/C(C)=O)Sc2ccc(F)cc21 | – | – | 10 µM | – | inhibition | 2.39% |
| O=C(NO)c1ccc(CN2CCCCc3ccccc32)c(F)c1 | radioligand binding, radioligand displacement | – | 10 µM, mean of replicates | – | inhibition | 32.7% |
| CC(C)NCC(O)COc1ccc(CC(N)=O)cc1 (stereo not drawn) | binding, agonist, radioligand binding | – | – | – | Hill coefficient | 0.8 |
| COc1cc(Cl)c(C(=O)N[C@@H](CN[C@H]2CC[C@@H](N)CC2)Cc2ccc(C#N)cc2)cc1-c1ccc(CN[C@H](C)c2ccc(C)cc2)o1 | agonist response, antagonist | 1 | 10 µM | – | inhibition | -7% |

For quick reference, copied from above:
| Compound | test | system | setting | scale | quantity | result |
| --- | --- | --- | --- | --- | --- | --- |
| CC(C)NCC(O)COc1ccc(CC(N)=O)cc1 (stereo not drawn) | binding, agonist, radioligand binding | – | – | – | Hill coefficient | 0.8 |
